Measured values gathered from unrelated publications.
A part holds a random share of what one study measured. Changes are numbered by the printed parent chain.

Block 1 — technique: RNAcompete; molecule type: RNA; matrix: in vitro; tested at: 20 nM; notes: 7-mer, probes averaged, single round; baseline: mean of 7-mers; reading: higher = stronger binding; endpoint: 7-mer Z-score
Target: PABPC1L2, full length, GST fusion (mouse, UniProt A0ABA7IW68)
Residues (chain): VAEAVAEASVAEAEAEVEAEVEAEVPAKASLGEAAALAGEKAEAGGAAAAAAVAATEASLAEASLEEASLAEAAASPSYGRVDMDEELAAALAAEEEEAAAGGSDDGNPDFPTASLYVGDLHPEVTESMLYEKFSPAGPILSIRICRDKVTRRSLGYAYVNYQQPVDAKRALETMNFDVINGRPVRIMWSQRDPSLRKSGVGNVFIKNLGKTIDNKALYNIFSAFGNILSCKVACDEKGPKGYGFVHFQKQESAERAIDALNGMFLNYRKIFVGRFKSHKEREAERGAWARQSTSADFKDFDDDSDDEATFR
GGCUAUU: -0.0718
GUAUAGA: -0.103
UGUUUAC: -0.458
ACGGAGA: 0.0207
GCCUCAU: -0.262
ACGCCUG: -0.17

Block 2 — technique: protein binding microarray; molecule type: double-stranded DNA, one strand shown; matrix: in vitro; tested at: not given; baseline: not given; reading: higher = stronger binding; endpoint: E-score
Target: Histone acetyltransferase KAT6A, both winged helices, GST fusion (KAT6A, Homo sapiens, UniProt Q92794, residues 1-181)
Notes: 8-mer, flanks averaged, mean of 2 arrays, mostly near background
Target sequence (chain): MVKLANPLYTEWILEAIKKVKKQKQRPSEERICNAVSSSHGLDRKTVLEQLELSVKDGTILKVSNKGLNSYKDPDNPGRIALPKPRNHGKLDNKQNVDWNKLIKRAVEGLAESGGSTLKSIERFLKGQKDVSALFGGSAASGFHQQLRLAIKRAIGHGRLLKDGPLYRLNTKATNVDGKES
ATTCACTA: -0.169
GCTTGGAC: -0.0043
CTGCAGAC: -0.0522
AGCGCGTG: 0.284
ATGCGGAA: 0.202

Block 3 — target: CCND2, cyclin fold, Cln2 fusion (human); technique: yeast growth competition, sequencing; matrix: yeast; notes: weak parent motif; baseline: not given; reading: higher = stronger binding; endpoint: normalised enrichment score
Starting sequence: PKMYT1 docking peptide (human); SFEPRNLLSLFED; partner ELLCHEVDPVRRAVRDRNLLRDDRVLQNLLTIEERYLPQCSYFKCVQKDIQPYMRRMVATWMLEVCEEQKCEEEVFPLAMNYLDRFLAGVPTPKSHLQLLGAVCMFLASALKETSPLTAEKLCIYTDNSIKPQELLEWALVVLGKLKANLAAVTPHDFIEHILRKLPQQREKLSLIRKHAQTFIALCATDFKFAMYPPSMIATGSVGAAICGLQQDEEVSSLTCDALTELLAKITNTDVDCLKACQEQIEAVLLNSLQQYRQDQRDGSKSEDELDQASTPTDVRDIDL
SFEPRNLLGLFED [S9G]: 0.435
SFEPRNLLSLFEN [D13N]: 0.134
SFEPRSLLSLFED [N6S]: -0.036
SFEPRNLLSLPED [F11P]: 0.0675
SGEPRNLLSLFED [F2G]: 0.234
SFESRNLLSLFED [P4S]: 0.088

Mixed results
PhoQ, residues 284 288 289 292 302 303 QWQEDG
fold induction (PhoP, residues 12 14 15 18 19 LHTVM (Escherichia coli, UniProt P23836); Sort-seq, item: YFP reporter; E. coli; PhoQ-PhoP variant library, together with: 10 µM Mg2+; baseline: high Mg2+ state, higher = stronger signaling): 15.1
